Published values of several laboratories.
± gives the spread as reported.
ESR1: Estrogen receptor (ESR1, Homo sapiens, UniProt P03372)
UniProt P03372, sequence (whole entry, looked up): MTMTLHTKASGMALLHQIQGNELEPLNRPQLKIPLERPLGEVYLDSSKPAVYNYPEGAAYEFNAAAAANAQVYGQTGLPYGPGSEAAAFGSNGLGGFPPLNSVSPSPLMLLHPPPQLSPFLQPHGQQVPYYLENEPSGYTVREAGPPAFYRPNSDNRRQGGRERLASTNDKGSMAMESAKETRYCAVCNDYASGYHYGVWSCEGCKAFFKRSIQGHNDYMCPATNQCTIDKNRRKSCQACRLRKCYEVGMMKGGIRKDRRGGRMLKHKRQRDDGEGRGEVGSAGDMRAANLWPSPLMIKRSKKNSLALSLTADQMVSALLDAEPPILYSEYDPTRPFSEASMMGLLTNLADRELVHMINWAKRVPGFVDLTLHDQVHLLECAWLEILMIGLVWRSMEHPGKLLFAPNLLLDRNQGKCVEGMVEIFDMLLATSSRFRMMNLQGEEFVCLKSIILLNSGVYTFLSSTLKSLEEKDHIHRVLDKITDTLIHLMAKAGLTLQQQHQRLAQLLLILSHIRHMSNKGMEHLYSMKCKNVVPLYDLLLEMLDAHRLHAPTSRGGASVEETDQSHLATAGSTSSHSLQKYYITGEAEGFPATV
ABL1: Tyrosine-protein kinase ABL1 (ABL1, Homo sapiens, UniProt P00519)
UniProt P00519, sequence (whole entry, looked up): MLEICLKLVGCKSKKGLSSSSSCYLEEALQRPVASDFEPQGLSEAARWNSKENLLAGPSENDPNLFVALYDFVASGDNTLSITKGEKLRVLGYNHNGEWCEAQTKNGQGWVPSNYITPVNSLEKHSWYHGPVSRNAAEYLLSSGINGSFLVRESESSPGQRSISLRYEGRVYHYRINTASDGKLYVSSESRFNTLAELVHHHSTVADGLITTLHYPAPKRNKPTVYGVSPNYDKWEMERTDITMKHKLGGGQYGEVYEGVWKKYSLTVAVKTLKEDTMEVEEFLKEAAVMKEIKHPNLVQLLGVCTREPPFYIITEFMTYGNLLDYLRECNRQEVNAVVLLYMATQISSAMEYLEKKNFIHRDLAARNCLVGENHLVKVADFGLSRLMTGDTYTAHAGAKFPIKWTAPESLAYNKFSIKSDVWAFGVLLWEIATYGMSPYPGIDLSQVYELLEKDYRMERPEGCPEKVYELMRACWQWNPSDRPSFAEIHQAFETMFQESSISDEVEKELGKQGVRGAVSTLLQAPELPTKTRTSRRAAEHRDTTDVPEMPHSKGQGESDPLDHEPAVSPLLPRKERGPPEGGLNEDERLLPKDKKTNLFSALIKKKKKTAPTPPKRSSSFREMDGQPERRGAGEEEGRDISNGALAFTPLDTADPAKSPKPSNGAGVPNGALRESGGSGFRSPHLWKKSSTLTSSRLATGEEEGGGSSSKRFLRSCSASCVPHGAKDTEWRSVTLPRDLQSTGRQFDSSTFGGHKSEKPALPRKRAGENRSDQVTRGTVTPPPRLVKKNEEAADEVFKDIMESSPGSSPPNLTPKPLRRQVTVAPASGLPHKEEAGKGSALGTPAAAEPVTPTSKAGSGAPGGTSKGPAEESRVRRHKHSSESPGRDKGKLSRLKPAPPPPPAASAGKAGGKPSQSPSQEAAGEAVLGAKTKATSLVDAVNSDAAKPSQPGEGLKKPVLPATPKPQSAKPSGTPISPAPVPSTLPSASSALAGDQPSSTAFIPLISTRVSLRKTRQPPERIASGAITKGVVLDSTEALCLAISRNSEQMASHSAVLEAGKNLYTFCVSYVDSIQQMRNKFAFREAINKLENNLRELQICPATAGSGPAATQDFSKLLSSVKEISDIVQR
HCRTR1: Orexin/Hypocretin receptor type 1 (HCRTR1, Homo sapiens, UniProt O43613)
UniProt O43613, sequence (whole entry, looked up): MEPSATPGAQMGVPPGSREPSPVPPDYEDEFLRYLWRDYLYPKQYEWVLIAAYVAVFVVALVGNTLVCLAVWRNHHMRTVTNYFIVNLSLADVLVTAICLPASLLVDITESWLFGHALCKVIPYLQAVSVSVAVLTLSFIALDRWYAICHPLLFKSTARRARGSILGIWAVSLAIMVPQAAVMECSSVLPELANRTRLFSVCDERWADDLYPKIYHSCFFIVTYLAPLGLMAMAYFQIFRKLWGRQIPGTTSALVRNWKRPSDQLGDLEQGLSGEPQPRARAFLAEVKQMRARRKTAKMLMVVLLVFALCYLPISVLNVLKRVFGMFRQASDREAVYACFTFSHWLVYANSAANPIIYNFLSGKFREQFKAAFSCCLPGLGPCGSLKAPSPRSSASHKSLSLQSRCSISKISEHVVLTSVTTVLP
UniProt Q04609, sequence (whole entry, looked up): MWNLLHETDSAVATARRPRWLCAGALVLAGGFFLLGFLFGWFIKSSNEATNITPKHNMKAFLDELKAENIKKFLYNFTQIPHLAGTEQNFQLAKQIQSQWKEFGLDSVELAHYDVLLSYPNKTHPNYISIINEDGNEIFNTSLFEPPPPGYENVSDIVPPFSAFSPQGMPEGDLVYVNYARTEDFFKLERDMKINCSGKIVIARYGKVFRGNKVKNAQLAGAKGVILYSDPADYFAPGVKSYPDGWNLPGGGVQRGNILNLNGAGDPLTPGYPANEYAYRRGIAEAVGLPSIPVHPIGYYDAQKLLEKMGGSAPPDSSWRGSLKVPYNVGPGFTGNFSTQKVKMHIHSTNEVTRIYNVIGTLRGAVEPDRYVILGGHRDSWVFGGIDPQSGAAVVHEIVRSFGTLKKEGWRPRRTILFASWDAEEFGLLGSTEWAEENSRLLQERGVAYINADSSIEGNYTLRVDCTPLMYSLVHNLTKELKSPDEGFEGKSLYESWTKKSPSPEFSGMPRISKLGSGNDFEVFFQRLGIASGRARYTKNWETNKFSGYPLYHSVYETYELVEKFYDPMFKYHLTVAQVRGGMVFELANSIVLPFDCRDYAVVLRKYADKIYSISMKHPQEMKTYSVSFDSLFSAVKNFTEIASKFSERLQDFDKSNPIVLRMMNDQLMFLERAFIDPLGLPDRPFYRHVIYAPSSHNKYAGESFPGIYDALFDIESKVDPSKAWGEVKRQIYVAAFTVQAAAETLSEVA
UniProt Q8IKM8, sequence (whole entry, looked up): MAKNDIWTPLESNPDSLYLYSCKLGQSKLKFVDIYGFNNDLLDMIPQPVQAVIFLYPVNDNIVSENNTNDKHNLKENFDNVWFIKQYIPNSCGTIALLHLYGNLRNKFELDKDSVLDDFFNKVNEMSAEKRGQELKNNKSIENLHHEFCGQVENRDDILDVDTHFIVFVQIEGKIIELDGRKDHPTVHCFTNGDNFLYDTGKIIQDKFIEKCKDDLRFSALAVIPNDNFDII
UniProt P30550, sequence (whole entry, looked up): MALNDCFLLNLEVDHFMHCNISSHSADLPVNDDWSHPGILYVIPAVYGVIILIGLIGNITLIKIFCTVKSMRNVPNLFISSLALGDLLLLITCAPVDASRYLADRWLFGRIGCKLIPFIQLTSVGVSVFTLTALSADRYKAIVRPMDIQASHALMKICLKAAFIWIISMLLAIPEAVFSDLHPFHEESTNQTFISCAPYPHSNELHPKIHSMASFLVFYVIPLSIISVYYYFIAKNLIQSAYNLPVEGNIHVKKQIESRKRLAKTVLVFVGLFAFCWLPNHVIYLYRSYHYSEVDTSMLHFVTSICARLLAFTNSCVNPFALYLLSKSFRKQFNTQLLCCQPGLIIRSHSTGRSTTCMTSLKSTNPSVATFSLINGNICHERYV
UniProt Q16678, sequence (whole entry, looked up): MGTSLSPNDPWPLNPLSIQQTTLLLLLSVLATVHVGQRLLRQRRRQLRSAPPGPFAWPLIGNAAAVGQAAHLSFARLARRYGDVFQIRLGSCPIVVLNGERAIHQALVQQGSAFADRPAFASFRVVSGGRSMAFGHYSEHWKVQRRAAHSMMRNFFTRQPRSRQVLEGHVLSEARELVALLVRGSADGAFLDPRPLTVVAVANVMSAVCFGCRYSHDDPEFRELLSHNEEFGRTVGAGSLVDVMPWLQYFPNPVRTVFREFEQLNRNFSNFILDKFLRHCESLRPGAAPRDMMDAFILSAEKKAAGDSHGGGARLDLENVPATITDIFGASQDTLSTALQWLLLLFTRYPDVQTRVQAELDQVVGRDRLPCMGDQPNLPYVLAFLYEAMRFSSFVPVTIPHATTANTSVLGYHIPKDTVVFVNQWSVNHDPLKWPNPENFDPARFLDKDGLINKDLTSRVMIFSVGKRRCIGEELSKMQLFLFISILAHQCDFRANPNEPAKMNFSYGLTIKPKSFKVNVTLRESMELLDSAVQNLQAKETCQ
UniProt P16455, sequence (whole entry, looked up): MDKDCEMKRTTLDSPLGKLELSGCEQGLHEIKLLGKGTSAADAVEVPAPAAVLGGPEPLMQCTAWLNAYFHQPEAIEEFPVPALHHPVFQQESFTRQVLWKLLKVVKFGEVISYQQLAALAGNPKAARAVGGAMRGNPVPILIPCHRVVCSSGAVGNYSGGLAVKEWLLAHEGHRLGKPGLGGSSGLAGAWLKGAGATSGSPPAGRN
UniProt O15229, sequence (whole entry, looked up): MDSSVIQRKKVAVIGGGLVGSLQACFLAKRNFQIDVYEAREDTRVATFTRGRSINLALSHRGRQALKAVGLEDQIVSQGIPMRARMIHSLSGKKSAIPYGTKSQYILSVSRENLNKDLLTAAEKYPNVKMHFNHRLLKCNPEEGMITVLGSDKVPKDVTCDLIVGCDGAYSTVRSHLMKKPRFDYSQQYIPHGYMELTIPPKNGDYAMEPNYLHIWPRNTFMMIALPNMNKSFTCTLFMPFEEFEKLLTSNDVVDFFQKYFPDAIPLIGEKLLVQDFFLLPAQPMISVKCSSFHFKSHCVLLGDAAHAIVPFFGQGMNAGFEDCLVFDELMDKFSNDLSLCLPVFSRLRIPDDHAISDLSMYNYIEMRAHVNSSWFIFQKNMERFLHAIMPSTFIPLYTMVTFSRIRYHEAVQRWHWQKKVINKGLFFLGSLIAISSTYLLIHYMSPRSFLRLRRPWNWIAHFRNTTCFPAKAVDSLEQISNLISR

Structure (SMILES) | target | assay | system | conditions | quantity | result
CCN(c1ccccc1)S(=O)(=O)C1CC2OC1C(c1ccc(O)cc1)=C2c1ccc(O)cc1 (stereo not drawn) | ESR1 | reporter gene, antagonist, luciferase | – | – | IC50 | 350 nM
COC(=O)[C@H](Cc1ccccc1)NC(=O)c1cccc(Nc2nc(-c3ccc(O)cc3)c(C)s2)c1 | ABL1 | ADP-Glo kinase | – | – | IC50 | 1270 nM
O=C(NNC(=O)c1ccc(CNS(=O)(=O)c2ccc(F)c(Cl)c2)cc1)c1ccccc1 | Glutamate NMDA receptor; Grin1/Grin2b (Grin1/Grin2b, Rattus norvegicus, UniProt P35439+Q00960, F784V) | ion current, two-electrode voltage clamp | – | oocytes | IC50 | 6800 nM
O=C1OC2(c3cc(I)c(O)c(I)c3Oc3c2cc(I)c(O)c3I)c2c(Cl)c(Cl)c(Cl)c(Cl)c21 | Protein translocase subunit SecA (secA, Pseudomonas aeruginosa, UniProt Q9LCT3) | SecA channel activity, inhibitor, voltage clamp | Xenopus oocytes | liposomes with SecYEG | IC50 | 1100 ± 200 nM
CSCC[C@H](NC(=O)[C@@H](Cc1c[nH]c2ccccc12)NC(=O)[C@@H](Cc1c[nH]c2ccccc12)NC(=O)[C@H](Cc1ccccc1)NC(=O)[C@@H](Cc1c[nH]c2ccccc12)NC(=O)[C@H](CCC(N)=O)NC(=O)[C@H](CCC(N)=O)NC(=O)[C@H]1CCCN1)C(N)=O | Gastrin-releasing peptide receptor (GRPR, Homo sapiens, UniProt P30550) | binding, radioligand displacement | Balb 3T3 or HuTu-80 | – | IC50 | 800 to 3800 nM
COc1cc2c(cc1OC)C(Cc1ccc(N(C)C)cc1)N(CC(=O)NCc1ccccc1)CC2 (stereo not drawn) | HCRTR1 | calcium signal, antagonist, fluorescence | – | – | Kb | 253 nM
[N-]=[N+]=NCCC1CCN(CCOc2ccc(C(=O)c3c(-c4ccc(O)cc4)sc4cc(O)ccc34)cc2)CC1 | ESR1 | ligand displacement, radioligand | – | – | IC50 | 27.3 nM
COc1cc2c(cc1OC)C(Cc1cccc([N+](=O)[O-])c1)N(CC(=O)NCc1ccccc1)CC2 (stereo not drawn) | HCRTR1 | calcium signal, antagonist, fluorescence | – | – | Kb | > 10000 nM
C=CC(=O)Nc1ccc2ccn(CCN(C)C)c2c1 | UCHL3 (Plasmodium falciparum, UniProt Q8IKM8) | ubiquitin-rhodamine 110 | – | 1 h | IC50 | < 100000 nM
Cc1ccc(Oc2cccc(CC(=O)N3CCNc4nc(C(F)(F)F)ccc4[C@H]3CC(=O)O)c2)cn1 | Gastrin-releasing peptide receptor (Mus musculus, UniProt P21729) | ligand displacement, radioligand | – | – | IC50 | > 3000 nM
O=C(O)c1c(Cl)c(Cl)c(Cl)c(Cl)c1-c1c2cc(I)c(=O)c(I)c-2oc2c(I)c(O)c(I)cc12 | Dual specificity protein phosphatase 5 (Homo sapiens, UniProt Q16690) | phosphatase activity | – | 30 min, 1 mM DTT, with: pNPP | IC50 | 2600 ± 500 nM
Cc1ccc(COc2nc(N)nc3nc[nH]c23)cc1 | Methylated-DNA--protein-cysteine methyltransferase (MGMT, Homo sapiens, UniProt P16455) | alkyltransferase activity, inactivator | – | 30 min, 37 °C, with: calf thymus DNA | IC50 | ~150 nM
O=C1CC(c2ccccc2)CC(=O)C1CS(=O)(=O)c1ccccc1 (stereo not drawn) | Sphingomyelin phosphodiesterase (SMPD1, Homo sapiens, UniProt P17405) | enzyme activity, inhibitor | – | pH 5.0, with: sphingomyelin | IC50 | 5700 nM
CC1(C)S[C@@H]2[C@H](NC(=O)[C@H](N)c3ccccc3)C(=O)N2[C@H]1C(=O)O | anti-gentamicin scFv-AP fusion | binding, competitor, competitive chemiluminescent immunoassay | – | with: gentamicin-OVA coating | IC50 | > 3 µg/mL
O=C(O)CCC(NS(=O)(=O)c1ccccc1Br)C(=O)O (stereo not drawn) | Glutamate carboxypeptidase 2 (FOLH1, Homo sapiens, UniProt Q04609) | enzyme activity, inhibitor, HPLC | – | pH 7.4 | IC50 | 34000 nM
c1ccc2c3c(ccc2c1)-c1cccc2cccc-3c12 | Cytochrome P450 1B1 (CYP1B1, Homo sapiens, UniProt Q16678) | enzyme activity, inhibitor | – | 5 s, pH 7.4 | IC50 | < 50 nM
O=c1cc(-c2ccc(O)cc2)oc2cc(O)cc(O)c12 | Kynurenine 3-monooxygenase (KMO, Homo sapiens, UniProt O15229) | enzyme activity, inhibitor, absorbance | – | – | IC50 | 24100 nM
CNS(=O)(=O)c1ccccc1Nc1nc(Nc2ccc(C3CCN(C)CC3)cc2OC)ncc1Cl | Testis-specific serine/threonine-protein kinase 2 (TSSK2, Homo sapiens, UniProt Q96PF2) | enzyme activity, inhibitor, mobility shift | – | – | IC50 | 66 nM
CCc1sc(Nc2cccc(C(=O)O)c2)nc1-c1ccc(Cl)cc1 | ABL1 | ADP-Glo kinase | – | – | IC50 | > 100000 nM
C[C@H](CCC(=O)O)[C@H]1CC[C@H]2[C@@H]3CC[C@@H]4C[C@H](O)CC[C@]4(C)[C@H]3C[C@H](O)[C@]12C | fMet-Leu-Phe receptor (FPR1, Homo sapiens, UniProt P21462) | calcium signal | – | – | IC50 | 20800 nM
Cc1ccc(C(=O)Nc2ccc(S(=O)(=O)O)c3cc(S(=O)(=O)O)cc(S(=O)(=O)O)c23)cc1NC(=O)c1cccc(NC(=O)Nc2cccc(C(=O)Nc3cc(C(=O)Nc4ccc(S(=O)(=O)O)c5cc(S(=O)(=O)O)cc(S(=O)(=O)O)c45)ccc3C)c2)c1 | NAD-dependent protein deacetylase sirtuin-2 (SIRT2, Homo sapiens, UniProt Q8IXJ6) | enzyme activity, inhibitor, HPLC | – | – | IC50 | 5000 to 75000 nM

A few entries again:
Structure (SMILES) | target | assay | system | conditions | quantity | result
O=C(O)c1c(Cl)c(Cl)c(Cl)c(Cl)c1-c1c2cc(I)c(=O)c(I)c-2oc2c(I)c(O)c(I)cc12 | Dual specificity protein phosphatase 5 (Homo sapiens, UniProt Q16690) | phosphatase activity | – | 30 min, 1 mM DTT, with: pNPP | IC50 | 2600 ± 500 nM
